# Measurements from different studies.
# A part holds a random share of what one study measured. Substitutions count along the parent as printed.

# Set 1
# Target: CCND1, cyclin fold, Cln2 fusion (human)
# Technique: yeast growth competition, sequencing
# Medium: yeast
# Setting: weak parent motif
# Reference: not given
# Direction: higher = stronger binding
# Parent: BRCA2 docking peptide (human); PSIKRNLLNEFDR; partner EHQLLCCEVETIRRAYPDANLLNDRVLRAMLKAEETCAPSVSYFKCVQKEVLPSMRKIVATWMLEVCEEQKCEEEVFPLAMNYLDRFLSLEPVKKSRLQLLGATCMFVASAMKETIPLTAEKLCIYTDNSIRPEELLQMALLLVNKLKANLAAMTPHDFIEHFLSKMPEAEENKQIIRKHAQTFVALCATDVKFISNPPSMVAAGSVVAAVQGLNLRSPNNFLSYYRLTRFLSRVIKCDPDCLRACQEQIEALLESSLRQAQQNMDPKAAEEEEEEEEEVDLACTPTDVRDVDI
Variant,normalised enrichment score
PSIKRNLLNYFDR [E10Y],1.31
KSIKRNLLNEFDR [P1K],1.04
PSIKRNFLNEFDR [L7F],-0.296
PSIKMNLLNEFDR [R5M],0.737
PSIKRNLLNEFTR [D12T],0.0549
PSIKRNLENEFDR [L8E],0.339
PSIKYNLLNEFDR [R5Y],-0.152
PSIKRNLHNEFDR [L8H],0.124
PSIKRNLLNEFHR [D12H],0.0585
PSISRNLLNEFDR [K4S],0.492
PFIKRNLLNEFDR [S2F],0.0249
PSIKDNLLNEFDR [R5D],1.34
PDIKRNLLNEFDR [S2D],1.06
PSIKRFLLNEFDR [N6F],0.827
PPIKRNLLNEFDR [S2P],0.276
PSIKRNLLNEFDT [R13T],0.786
PSIKCNLLNEFDR [R5C],0.443
SSIKRNLLNEFDR [P1S],1.12
PSIKRNLLPEFDR [N9P],0.639
PSIKRNLSNEFDR [L8S],0.797
PTIKRNLLNEFDR [S2T],0.519
PKIKRNLLNEFDR [S2K],0.785

# Set 2
# Target: CEP164, C-terminal peptide (human)
# Technique: DHFR complementation, deep sequencing
# Medium: yeast
# Setting: single substitutions, model-inferred values
# Reference: wild type
# Direction: higher = weaker binding
# Parent: PDZK1, PDZ domain 2 (human); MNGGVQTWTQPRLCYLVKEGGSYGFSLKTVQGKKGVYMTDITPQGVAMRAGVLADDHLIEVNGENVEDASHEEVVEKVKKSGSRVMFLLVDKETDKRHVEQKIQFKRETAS; partner HNRVKVYRF
Variant,binding free energy change
G24E,1.22 kcal/mol
A54Q,-0.228 kcal/mol
V36W,1.39 kcal/mol
V66H,0.547 kcal/mol
G82A,0.568 kcal/mol
V61T,0.837 kcal/mol
T39V,0.121 kcal/mol
E60R,0.412 kcal/mol
N2M,-0.0604 kcal/mol
G82Y,0.779 kcal/mol
S81D,1.16 kcal/mol
I41V,0.281 kcal/mol
Y15V,-0.0893 kcal/mol
E76C,0.167 kcal/mol
M38V,0.342 kcal/mol
L16D,1.57 kcal/mol
D40I,0.695 kcal/mol
G21N,0.0609 kcal/mol

# Set 3
# Target: ABI1, truncated, D143A, DHFR fusion (Arabidopsis thaliana)
# Technique: DHFR PCA, deep sequencing
# Medium: yeast
# Setting: methotrexate growth selection, single substitutions
# With: (+)-ABA 17 µM
# Reference: wild-type fitted maximum
# Direction: higher = stronger binding
# Parent: PYL1, truncated, DHFR fusion (Arabidopsis thaliana); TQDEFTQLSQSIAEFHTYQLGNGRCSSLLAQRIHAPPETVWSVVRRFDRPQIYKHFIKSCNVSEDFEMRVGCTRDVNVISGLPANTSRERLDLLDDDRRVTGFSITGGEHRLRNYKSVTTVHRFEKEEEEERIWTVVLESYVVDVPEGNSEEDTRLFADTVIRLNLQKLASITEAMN; partner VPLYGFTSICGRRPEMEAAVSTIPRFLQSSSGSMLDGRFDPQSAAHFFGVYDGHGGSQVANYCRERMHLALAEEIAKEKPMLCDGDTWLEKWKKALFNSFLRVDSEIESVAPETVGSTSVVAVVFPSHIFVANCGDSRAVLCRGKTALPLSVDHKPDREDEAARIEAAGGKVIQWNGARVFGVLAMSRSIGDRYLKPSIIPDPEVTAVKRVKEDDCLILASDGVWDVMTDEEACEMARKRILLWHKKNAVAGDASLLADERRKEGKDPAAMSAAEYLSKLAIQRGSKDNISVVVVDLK
Variant,relative binding score [%]
L29W,10.9
V118Y,29.2
V43D,-3.77
T1K,83.6
S87H,5.76
S27M,15.3
L166D,-9.97
N85M,82.4
D75M,88.9
E174T,67.3
F56M,65.1
F5W,82.7

# Set 4
# Target: Histone acetyltransferase KAT6A, winged helix 2, GST fusion (KAT6A, Homo sapiens, UniProt Q92794, residues 85-181)
# Technique: protein binding microarray
# Form: double-stranded DNA, one strand shown
# Medium: in vitro
# Concentration: not given
# Setting: 8-mer, flanks averaged, mean of 2 arrays, mostly near background
# Reference: not given
# Direction: higher = stronger binding
# Target sequence (chain): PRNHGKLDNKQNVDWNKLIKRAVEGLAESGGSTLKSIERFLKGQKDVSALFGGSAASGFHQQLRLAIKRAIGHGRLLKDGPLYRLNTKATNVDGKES
Sequence,E-score
GGTGAAAC,0.124
AGTTAGCA,0.0355
GAGAGATA,0.0617
AAAGCTGG,0.0519
AATACGCG,-0.0221
GTCCGGAC,0.189
AGTCGCCC,-0.0159
AGTTAACG,-0.072
CGTAGTGA,-0.0736
ACAGCCAA,0.136
CAAATCCG,-0.018
GTGACTCA,-0.0766
CACCGACG,0.138
ACCGCGTA,-0.00417
GCTTCTAC,0.0472
CATCATAG,-0.00747
ATAGCGTG,-0.162
CGCGCCCC,0.215
CCCACATC,-0.0535
CCAGGAGG,0.0785
ACACCACG,-0.123
AACATACC,-0.0828
ACGCCAAT,0.0178
TGCGACCA,0.123
GCATAAAC,0.0599

# Set 5
# Target: XBP1, bZIP domain (human)
# Technique: DHFR protein complementation
# Medium: yeast
# Setting: single substitutions, most at no-binding floor
# Reference: wild-type JUN-FOS pair
# Direction: higher = stronger binding
# Parent: JUN, bZIP domain (human); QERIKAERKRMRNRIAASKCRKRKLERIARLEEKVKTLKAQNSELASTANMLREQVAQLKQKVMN; partner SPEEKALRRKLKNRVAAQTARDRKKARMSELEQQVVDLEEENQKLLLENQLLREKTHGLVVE
Variant,binding fitness [natural log]
A46G,-1.39
A46P,-1.38
E54N,-1.27
L45G,-1.51
A46F,-1.22
Q58P,-1.31
A40D,-0.853
E32Q,-1.26
L52Q,-1.23
Q55A,-0.645
T48P,-1.49
E33P,-1.46
N42E,-1.44
L38S,-1.51
E33N,-1.2
L38N,-1.42
S43N,-0.711
M51S,-0.798
S47P,-1.51
E32Y,-1.16
A49F,-1.2
K39S,-1.16
V35T,-1.53

# Set 6
# Target: RNA binding protein fox-1 homolog 2, RRM domain, GST-SBP tag (RBFOX2, Homo sapiens, UniProt O43251-10, residues 100-194)
# Technique: RNA Bind-n-Seq
# Form: RNA
# Medium: in vitro
# Concentration: 365 nM
# Setting: natural RNA segment, single round, ends assumed
# Reference: no-protein control
# Direction: higher = stronger binding
# Target sequence (chain): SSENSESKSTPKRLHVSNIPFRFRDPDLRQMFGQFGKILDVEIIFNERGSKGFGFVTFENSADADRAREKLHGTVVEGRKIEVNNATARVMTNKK
Sequence,RBNS enrichment (R)
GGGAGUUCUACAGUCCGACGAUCUCUGUAACUUUUGCUAAACACUUUAUACAUUUUUAAUGUUGAAAAGCAGUGUCUCCUGCCAGAACUCCUCACCCAGGAUGAAUGUGUUUACUCCACGCUGUAUAUCUUUCUGGAAUUCUCGGGUGCCAA,0.435
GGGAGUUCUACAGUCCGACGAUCAAAACUUCCAGGAUUUUGCAAAGUUGUAUAUAUUUAAUGCUGUGCAACUGCUAAACUAUGCAGUUUUUCUUGAAGGAACUAAAAGCAACUAGCUCCCUAAUGGUCUAUAAUGGAAUUCUCGGGUGCCAA,0.556
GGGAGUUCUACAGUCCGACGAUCCCAUGGUGAUACAGCUCUGUGUGAUUCAAGUUCUGGCAGAGCUUGUAAGGCUAGAGCCCAGGUCUGCCGACACCCUGUGCUUGUUGCACACUUGAUUUGCUAAGGCUGGAUGGAAUUCUCGGGUGCCAA,0.502
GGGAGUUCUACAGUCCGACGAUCCCAGUAUAAAGACAAAUAAUAUCUAUCGCUCCCAUUAUUUUCAUAAGUAACACAGAUUCCCUGAUUUUUUUUUUUAAAAAACUAAAAAGAUCUCUAAACCUUCUUACAUAUGGAAUUCUCGGGUGCCAA,0.662
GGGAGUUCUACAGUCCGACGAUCAACAAAUGUGCCCACCCCACCUUCCACUUAAAGAAAAAAAAUCUCAAAAUAAAUUUCUGAAUUAUGCAUCAUAAAGCUUUGAAAUUUCUUUUUUAAUUGAUGGGAUACUAUGGAAUUCUCGGGUGCCAA,1.11
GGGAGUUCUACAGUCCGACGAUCUUCCCUGAGGGUCCUCAGGGUGGAGGACAGGUUUGGCCCAGAAAGACUAGCCAGAGGCCUGAUGGUCCCAGGUGGCUCUGGAUAUACUUUGGAUAUGGAUUUAAAUGGUCUGGAAUUCUCGGGUGCCAA,0.248
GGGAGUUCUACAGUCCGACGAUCGUUUGGGAGACCCAUGGAAGAAAACCUUCGCCAUCUCCAUUGUUUUACCCCCAGCUCAAGAUGGACAGGGUUCUUCUGGUCAUCUCCCUUCCACCUCUUCCACCCUCAUGUGGAAUUCUCGGGUGCCAA,0.267
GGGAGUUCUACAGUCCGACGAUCCCAAAGGACCCCUCGACUGGCCACAGCCCAGCCCAGCCUGACGUGGAUGUGGCUGCCCAGGAAAAGACUUAACUGUGAAAAAGUACUGAGAACCCACCUGACCCAGGCUUUGGAAUUCUCGGGUGCCAA,0.612
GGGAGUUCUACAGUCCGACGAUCAAGAACUAAAUAUGAGUACAUAAAAUUCUAUCUUUGAUAAAUUUUAUUUUUAUGCCCUACUUAAUAUUUGCAUCAGUAUAAUAUAUAUCAGUGAGUCUUACAGAAAGAUAUGGAAUUCUCGGGUGCCAA,0.586
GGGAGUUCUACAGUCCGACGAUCAGCUAUGAAUGUAUUUGCUUCUAAAACCUCCCAAAGUGAAUCUAAUCUUAAAACUACAAGUUGUAAGUAUUCUGAAAUUGGGAAACAUUUAUUUUAAAUGCAAUCAGGUAUGGAAUUCUCGGGUGCCAA,0.393
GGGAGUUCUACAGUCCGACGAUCAUGAUUAGUAUUACUUGAAUGCAUCCAGAGGAUAUUUAAACCAAAAUGAAAAACCAGAAGGCCAUUUGGUGUCCCCCCUCCCAGGUGUCCCCUUGUAGCAUAUGCAUUAUUGGAAUUCUCGGGUGCCAA,1.2
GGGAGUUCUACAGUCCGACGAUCAGUGUGGAAGUACUACUUAACUGUCUGUCCUGCUUGGCUGUCGUUAUCGUUUUCUGGUGAUGUUGUGCUAACAAUAAGAAGUACACGGGUUUAUUUCUGUGGCCUGAGAAUGGAAUUCUCGGGUGCCAA,0.709

# Other studies, line by line
Substance,target,assay,system,setting,scale,endpoint,value
"PhoQ, residues 284 288 289 292 302 303 SSTLLI","PhoP, residues 12 14 15 18 19 SEGLL (Escherichia coli, UniProt P23836)","Sort-seq, item: YFP reporter",E. coli,"PhoQ-PhoP variant library, with: 10 µM Mg2+","reference: high Mg2+ state, higher = stronger signaling",fold induction,8.03

# Repeated from above (set 3):
Variant,relative binding score [%]
V43D,-3.77
T1K,83.6
S87H,5.76
S27M,15.3
L166D,-9.97
N85M,82.4
